Measurements gathered from unrelated publications.
Every numbered part comes from another study and shows a few of its results, in no order.
Sequence of UniProt P07949 (whole entry, looked up): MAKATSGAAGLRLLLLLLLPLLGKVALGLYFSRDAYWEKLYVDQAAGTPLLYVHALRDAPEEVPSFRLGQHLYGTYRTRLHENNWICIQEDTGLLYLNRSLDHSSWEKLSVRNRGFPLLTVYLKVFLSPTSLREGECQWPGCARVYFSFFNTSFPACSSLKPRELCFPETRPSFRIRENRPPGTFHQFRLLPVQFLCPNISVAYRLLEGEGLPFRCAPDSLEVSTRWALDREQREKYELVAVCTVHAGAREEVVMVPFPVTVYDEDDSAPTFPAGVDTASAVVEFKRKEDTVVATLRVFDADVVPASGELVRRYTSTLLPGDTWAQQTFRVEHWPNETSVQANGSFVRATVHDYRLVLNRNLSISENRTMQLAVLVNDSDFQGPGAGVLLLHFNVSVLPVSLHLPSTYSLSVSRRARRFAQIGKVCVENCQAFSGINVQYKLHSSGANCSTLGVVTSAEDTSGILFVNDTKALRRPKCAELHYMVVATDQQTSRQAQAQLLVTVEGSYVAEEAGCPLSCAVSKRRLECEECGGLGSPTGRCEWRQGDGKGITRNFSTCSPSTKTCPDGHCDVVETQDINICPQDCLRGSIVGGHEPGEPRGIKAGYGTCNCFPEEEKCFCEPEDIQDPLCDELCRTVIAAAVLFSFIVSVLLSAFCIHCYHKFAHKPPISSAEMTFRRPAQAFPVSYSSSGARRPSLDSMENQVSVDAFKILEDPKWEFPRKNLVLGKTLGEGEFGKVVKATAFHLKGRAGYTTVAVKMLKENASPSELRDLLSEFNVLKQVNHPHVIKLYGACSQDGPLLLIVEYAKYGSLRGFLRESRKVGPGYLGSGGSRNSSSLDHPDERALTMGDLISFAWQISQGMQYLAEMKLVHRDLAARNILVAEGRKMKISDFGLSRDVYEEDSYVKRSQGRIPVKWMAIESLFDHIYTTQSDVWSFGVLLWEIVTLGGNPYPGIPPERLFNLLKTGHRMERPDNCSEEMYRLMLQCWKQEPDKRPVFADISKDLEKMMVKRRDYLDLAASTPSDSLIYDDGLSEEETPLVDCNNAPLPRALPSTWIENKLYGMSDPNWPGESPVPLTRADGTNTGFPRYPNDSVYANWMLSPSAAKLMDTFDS
Sequence of UniProt O75914 (whole entry, looked up): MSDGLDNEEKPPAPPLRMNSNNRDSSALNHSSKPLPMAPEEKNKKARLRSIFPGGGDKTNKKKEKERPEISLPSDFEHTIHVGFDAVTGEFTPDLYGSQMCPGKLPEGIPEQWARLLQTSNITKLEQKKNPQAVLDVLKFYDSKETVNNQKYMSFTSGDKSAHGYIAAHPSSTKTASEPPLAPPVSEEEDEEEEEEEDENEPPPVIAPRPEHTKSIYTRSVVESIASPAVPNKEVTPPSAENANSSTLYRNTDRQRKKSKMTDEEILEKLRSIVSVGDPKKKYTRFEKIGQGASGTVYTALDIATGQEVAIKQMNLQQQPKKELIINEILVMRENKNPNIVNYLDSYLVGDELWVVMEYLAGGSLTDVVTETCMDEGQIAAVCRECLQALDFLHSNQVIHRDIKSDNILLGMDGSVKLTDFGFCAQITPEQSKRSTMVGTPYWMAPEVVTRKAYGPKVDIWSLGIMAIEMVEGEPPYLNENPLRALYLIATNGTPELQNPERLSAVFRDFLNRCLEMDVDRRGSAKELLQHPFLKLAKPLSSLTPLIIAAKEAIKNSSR
Sequence of UniProt P00519 (whole entry, unmodified, looked up): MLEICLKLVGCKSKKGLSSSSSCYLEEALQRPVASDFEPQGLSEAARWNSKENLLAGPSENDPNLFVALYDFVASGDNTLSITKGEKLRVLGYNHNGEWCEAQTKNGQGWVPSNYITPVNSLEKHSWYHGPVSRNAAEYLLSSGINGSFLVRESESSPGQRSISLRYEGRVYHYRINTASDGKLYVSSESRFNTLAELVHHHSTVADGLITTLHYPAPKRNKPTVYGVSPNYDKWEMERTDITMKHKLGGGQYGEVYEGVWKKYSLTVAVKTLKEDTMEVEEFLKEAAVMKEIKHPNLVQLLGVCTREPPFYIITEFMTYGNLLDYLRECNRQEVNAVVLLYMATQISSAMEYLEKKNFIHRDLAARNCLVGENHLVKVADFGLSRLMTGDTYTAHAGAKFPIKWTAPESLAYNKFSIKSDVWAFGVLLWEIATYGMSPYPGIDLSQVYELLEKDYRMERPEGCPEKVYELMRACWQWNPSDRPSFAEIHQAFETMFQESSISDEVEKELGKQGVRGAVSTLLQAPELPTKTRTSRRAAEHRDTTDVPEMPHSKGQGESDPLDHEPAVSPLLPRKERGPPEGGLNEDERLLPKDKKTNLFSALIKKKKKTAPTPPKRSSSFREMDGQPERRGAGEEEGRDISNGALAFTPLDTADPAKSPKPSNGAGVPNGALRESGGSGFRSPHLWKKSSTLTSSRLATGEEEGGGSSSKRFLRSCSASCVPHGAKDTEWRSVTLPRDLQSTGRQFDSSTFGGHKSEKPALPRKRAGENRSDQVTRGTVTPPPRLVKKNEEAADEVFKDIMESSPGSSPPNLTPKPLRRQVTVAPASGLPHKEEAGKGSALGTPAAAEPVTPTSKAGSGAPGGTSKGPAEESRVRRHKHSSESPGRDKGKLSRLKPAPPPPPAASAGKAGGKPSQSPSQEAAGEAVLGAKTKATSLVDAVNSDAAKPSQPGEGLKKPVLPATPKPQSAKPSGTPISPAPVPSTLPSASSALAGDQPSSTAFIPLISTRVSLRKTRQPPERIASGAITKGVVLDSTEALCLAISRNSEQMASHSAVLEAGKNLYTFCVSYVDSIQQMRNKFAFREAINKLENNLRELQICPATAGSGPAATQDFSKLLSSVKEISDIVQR
Sequence of UniProt P27448 (whole entry, looked up): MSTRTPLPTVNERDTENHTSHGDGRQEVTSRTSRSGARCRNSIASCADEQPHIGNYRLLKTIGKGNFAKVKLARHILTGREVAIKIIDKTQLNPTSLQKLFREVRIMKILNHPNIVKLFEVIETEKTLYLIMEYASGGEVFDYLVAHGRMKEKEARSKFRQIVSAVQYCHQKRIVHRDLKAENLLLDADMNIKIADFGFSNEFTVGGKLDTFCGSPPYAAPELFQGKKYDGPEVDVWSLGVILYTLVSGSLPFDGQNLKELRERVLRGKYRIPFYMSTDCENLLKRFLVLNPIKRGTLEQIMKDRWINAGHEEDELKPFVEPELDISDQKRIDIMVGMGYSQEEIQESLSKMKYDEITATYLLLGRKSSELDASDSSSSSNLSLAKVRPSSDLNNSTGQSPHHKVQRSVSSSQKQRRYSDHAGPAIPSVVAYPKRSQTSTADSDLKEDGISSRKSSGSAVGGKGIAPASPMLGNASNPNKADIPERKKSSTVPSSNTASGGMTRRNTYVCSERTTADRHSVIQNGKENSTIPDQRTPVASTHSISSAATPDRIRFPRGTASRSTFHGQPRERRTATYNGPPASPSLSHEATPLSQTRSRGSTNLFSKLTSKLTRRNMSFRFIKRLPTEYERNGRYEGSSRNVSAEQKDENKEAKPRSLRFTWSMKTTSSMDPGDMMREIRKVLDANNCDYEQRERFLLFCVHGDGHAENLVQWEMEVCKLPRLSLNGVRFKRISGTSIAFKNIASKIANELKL
Sequence of UniProt Q9NWZ3 (whole entry, looked up): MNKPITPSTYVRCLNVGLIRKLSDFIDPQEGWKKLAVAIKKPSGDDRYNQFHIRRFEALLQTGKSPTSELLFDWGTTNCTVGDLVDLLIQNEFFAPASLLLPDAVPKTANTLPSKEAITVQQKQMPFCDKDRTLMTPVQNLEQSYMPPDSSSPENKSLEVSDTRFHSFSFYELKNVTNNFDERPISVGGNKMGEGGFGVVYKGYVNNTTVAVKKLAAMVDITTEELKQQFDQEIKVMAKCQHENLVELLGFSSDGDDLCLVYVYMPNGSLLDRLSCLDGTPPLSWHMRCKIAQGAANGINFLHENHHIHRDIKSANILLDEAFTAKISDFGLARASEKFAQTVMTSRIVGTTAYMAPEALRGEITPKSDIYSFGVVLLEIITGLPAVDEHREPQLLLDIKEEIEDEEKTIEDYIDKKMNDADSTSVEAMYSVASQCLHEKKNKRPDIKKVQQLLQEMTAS
Sequence of UniProt O43353 (whole entry, looked up): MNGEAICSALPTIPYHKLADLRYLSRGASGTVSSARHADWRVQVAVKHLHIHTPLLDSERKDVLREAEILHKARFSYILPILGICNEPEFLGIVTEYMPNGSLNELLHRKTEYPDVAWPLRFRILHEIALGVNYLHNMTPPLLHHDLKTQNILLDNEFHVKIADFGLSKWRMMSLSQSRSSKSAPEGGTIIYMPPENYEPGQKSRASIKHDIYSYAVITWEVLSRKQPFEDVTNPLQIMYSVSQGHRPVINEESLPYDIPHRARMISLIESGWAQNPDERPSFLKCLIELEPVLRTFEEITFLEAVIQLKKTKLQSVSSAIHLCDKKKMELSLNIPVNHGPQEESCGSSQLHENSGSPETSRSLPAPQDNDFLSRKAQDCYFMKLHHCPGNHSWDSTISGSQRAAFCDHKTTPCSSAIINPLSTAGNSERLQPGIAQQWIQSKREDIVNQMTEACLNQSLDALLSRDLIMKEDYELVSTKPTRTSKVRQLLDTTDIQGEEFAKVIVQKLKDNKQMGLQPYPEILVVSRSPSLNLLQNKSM

Series 1
SMILES: CCCOc1ccc([C@@H]2[C@@H](C(=O)O)[C@H](c3ccc4c(c3)OCO4)CN2CC(=O)Nc2c(CC)cccc2CC)cc1
Technique: competition with immobilised ligand
Concentration: 1 µM
The remaining binding was 100% (MAP/microtubule affinity-regulating kinase 3 (MARK3, Homo sapiens, UniProt P27448); cell-free assay).
Serine/threonine-protein kinase tousled-like 1 (TLK1, Homo sapiens, UniProt Q9UKI8); cell-free assay — remaining binding: 77%.
The remaining binding was 96% (Tyrosine-protein kinase ABL1, non-phosphorylated (ABL1, Homo sapiens, UniProt P00519, F317I); binding).
It gave 100% for remaining binding (Interleukin-1 receptor-associated kinase 4 (IRAK4, Homo sapiens, UniProt Q9NWZ3); cell-free assay).
It gave 80% for remaining binding (Phosphatidylinositol 5-phosphate 4-kinase type-2 beta (PIP4K2B, Homo sapiens, UniProt P78356); cell-free assay).
The remaining binding was 84% (Receptor-interacting serine/threonine-protein kinase 2 (RIPK2, Homo sapiens, UniProt O43353); cell-free assay).
It gave 77% for remaining binding (Serine/threonine-protein kinase PAK 3 (PAK3, Homo sapiens, UniProt O75914); cell-free assay).
For cAMP-dependent protein kinase catalytic subunit alpha (PRKACA, Homo sapiens, UniProt P17612); cell-free assay: remaining binding read 100%.

Series 2
Target: Ras GTPase-activating protein-binding protein 1, RRM domain (G3BP1, Homo sapiens, UniProt Q13283)
Sequence of UniProt Q13283 (whole entry, looked up): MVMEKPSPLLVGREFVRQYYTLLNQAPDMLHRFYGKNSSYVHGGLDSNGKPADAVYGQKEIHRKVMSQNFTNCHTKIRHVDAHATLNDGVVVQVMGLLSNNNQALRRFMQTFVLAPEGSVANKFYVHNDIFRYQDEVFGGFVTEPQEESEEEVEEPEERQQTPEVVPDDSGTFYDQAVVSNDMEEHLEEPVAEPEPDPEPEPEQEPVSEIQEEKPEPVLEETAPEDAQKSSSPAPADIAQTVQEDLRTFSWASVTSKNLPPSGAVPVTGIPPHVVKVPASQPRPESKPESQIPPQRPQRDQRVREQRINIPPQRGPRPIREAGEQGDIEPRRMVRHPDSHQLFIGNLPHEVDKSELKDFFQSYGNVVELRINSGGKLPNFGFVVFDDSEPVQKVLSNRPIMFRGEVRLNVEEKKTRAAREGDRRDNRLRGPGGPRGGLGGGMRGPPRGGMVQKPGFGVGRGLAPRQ
Technique: RNA Bind-n-Seq
Molecule type: RNA
Sample: in vitro
Concentration: 1 µM
Setting: whole 134-nt RNA, ends assumed
Added: 150 mM KCl
Reference: input library
Direction: higher = stronger binding
For `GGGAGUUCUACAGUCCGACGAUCGCUGGAAGUAAAAACAAAUGGAAAUGCUUCGGAUAGUGGCAGGGGUGGGGGUUGCUAAGGAAAGGGUGGGAUGGGAGUGGGUAAAGAGUUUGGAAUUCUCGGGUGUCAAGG`, the log2 enrichment was 1.59.
`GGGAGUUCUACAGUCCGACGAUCCCUCAAGUCCUGUGCUACACAUCGUAUGUACCGAAUCGGGCGGCGGGCGGGGAAAGUAUUAUGUUACGCCGUUCGGAUCUGCACUUCCAGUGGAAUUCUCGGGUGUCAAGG` has a log2 enrichment of -0.085.
The log2 enrichment of `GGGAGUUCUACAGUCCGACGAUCUAACUUUAGAGGAGGAUCUGAUGGAUAUGGCAGUGGACGUGGAUUUGGGGUUGGCUAUAAUGGGUAUGGAGGAGGACCUGGAGGUGGCAAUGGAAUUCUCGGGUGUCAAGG` is reported as -0.604.
`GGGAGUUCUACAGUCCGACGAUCCUGUGCUACACAUCGUAUGUACCGAAUCGGGAAAAAAGGGGAAAAAAGGGGAAAAAAGGGGAAAGUAUUAUGUUACGCCGUUCGGAUCUGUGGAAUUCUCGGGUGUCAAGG` gave a log2 enrichment of 0.138.
With `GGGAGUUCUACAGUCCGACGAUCUCCUCAAGUCCUGUGCUACACAUCGUAUGUACCGAAUCGGGGUGGUGGGUGGAAAGUAUUAUGUUACGCCGUUCGGAUCUGCACUUCCAGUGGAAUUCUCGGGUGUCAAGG` the log2 enrichment was -0.136.
`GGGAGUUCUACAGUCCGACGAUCCUGUGCUACACAUCGUAUGUACCGAAUCGGGCCCCCCCGGCCCCCCCGGGCCCCCCCGGGGAAAGUAUUAUGUUACGCCGUUCGGAUCUGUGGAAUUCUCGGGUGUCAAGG` gave a log2 enrichment of -0.755.
The log2 enrichment of `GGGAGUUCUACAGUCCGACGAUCCAAGUCCUGUGCUACACAUCGUAUGUACCGAAUCGGAAAGGUUUUUGGUUUUUGGAAAGUAUUAUGUUACGCCGUUCGGAUCUGCACUUCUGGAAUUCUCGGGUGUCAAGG` is reported as -0.276.
The log2 enrichment of `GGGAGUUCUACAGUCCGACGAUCUGGCCCUGGUGGCAUGCGGGGAGGAAGAGGUGGCCUCAUGGAUCGUGGUGGUCCCGGUGGAAUGUUCAGAGGUAGCCGUGGUGGAGACAGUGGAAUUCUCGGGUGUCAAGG` is reported as 1.46.

Series 3
Target: TAR DNA-binding protein 43, full length, His tag (TARDBP, Homo sapiens, UniProt Q13148, residues 1-414)
Technique: RNA Bind-n-Seq
Molecule type: RNA
Sample: in vitro
Concentration: 20 nM
Setting: 6-mer, flanks averaged, single round
Added: 150 mM KCl
Reference: input library
Direction: higher = stronger binding
Under “6-mer enrichment (R)”, `CAUAGA` is recorded as 0.652.
`CCCUAA` — result for “6-mer enrichment (R)”: 0.631.
`UGUCAG`: “6-mer enrichment (R)” 0.85.
Under “6-mer enrichment (R)”, `GGGAAU` is recorded as 2.01.
`UAUUCU` — result for “6-mer enrichment (R)”: 0.56.
Under “6-mer enrichment (R)”, `GUACUU` is recorded as 0.607.
`CUAUUG`: “6-mer enrichment (R)” 0.63.
`CCUAUG`: “6-mer enrichment (R)” 0.677.

Series 4
SMILES: NC(=O)c1ccc(N(C(N)=O)c2c(F)cccc2F)nc1-c1ccc(F)cc1F
Observed: enzyme activity
Mode: inhibitor
Concentration: 0.5 µM
Reference: control
Proto-oncogene tyrosine-protein kinase receptor Ret (RET, Homo sapiens, UniProt P07949) — remaining activity: 93.1%.
It gave 95% for remaining activity (Proto-oncogene tyrosine-protein kinase ROS (ROS1, Homo sapiens, UniProt P08922)).
The remaining activity was 99.7% (Serine/threonine-protein kinase N2 (PKN2, Homo sapiens, UniProt Q16513)).

Excerpt of the above (series 3):
`CCUAUG`: “6-mer enrichment (R)” 0.677.
`CCCUAA` — result for “6-mer enrichment (R)”: 0.631.
Under “6-mer enrichment (R)”, `GGGAAU` is recorded as 2.01.
